Experimental data of several laboratories.
Parts stem from different laboratories: compare values within a part only.
Sequence of UniProt Q15746 (whole entry, looked up): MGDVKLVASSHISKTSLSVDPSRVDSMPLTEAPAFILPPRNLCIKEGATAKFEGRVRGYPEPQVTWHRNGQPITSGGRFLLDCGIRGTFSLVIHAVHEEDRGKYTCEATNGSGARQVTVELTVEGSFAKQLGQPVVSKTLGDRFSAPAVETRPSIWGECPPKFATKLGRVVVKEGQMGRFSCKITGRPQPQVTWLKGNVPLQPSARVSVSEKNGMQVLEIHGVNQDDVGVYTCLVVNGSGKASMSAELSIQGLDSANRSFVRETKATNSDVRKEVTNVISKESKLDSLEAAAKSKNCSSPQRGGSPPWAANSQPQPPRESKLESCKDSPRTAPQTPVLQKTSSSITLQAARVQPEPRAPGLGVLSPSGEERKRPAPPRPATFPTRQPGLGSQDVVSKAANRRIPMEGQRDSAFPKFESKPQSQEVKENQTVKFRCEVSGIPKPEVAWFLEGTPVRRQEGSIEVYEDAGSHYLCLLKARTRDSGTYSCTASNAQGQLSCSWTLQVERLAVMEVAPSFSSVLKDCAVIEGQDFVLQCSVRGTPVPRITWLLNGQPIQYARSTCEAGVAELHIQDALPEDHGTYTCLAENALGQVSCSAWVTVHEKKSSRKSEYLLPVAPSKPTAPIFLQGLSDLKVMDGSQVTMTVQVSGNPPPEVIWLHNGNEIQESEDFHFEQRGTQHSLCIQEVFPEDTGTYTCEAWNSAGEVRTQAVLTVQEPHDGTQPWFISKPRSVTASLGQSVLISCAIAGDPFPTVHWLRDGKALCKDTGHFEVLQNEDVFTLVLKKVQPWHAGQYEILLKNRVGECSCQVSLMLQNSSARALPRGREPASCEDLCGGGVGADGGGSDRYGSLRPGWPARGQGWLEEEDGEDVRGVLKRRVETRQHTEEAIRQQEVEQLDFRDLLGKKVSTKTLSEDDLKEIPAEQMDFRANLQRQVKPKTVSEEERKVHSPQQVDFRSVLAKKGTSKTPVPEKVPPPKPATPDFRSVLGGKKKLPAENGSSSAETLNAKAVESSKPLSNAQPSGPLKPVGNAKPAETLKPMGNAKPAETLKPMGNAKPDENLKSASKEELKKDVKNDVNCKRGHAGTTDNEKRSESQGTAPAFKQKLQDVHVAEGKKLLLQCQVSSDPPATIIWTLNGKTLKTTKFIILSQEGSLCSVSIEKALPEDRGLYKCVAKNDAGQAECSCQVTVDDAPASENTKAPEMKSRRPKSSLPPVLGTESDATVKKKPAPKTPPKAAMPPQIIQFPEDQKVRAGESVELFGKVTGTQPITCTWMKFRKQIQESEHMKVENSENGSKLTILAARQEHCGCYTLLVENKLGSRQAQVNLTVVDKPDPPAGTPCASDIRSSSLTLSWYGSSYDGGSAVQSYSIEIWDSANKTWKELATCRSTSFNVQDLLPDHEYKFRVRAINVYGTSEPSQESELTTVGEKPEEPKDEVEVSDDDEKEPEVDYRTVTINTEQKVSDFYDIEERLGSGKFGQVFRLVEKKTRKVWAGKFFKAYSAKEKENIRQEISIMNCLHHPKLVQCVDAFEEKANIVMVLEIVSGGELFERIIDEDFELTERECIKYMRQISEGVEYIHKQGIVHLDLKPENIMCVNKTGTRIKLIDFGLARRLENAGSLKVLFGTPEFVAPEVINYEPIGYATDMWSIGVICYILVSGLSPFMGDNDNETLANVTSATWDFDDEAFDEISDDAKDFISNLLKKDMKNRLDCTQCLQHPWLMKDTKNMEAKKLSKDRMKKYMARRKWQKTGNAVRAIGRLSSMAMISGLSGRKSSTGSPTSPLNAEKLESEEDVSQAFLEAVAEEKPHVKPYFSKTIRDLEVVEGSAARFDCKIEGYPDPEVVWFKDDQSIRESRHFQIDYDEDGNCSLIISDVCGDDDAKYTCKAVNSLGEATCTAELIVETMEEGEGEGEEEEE
Sequence of UniProt Q02156 (whole entry, looked up): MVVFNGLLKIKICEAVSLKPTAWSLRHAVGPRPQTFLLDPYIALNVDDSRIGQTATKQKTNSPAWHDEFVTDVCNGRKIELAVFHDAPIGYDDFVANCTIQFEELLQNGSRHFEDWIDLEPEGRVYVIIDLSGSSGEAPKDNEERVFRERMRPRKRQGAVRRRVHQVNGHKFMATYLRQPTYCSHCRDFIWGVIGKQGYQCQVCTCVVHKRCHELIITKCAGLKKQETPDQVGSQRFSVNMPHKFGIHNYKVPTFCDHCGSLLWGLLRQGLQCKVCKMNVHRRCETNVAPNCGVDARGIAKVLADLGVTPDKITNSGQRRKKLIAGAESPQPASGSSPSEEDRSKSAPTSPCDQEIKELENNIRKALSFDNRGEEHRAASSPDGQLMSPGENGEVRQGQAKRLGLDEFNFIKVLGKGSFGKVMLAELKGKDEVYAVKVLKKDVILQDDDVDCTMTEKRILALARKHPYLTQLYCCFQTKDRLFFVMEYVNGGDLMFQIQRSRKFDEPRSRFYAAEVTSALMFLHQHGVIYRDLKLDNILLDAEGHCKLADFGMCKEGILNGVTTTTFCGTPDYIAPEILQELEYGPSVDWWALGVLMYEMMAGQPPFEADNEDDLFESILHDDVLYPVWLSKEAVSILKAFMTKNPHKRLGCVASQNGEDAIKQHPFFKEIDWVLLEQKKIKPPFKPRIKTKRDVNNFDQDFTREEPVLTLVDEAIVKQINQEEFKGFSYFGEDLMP
Sequence of UniProt Q16620 (whole entry, looked up): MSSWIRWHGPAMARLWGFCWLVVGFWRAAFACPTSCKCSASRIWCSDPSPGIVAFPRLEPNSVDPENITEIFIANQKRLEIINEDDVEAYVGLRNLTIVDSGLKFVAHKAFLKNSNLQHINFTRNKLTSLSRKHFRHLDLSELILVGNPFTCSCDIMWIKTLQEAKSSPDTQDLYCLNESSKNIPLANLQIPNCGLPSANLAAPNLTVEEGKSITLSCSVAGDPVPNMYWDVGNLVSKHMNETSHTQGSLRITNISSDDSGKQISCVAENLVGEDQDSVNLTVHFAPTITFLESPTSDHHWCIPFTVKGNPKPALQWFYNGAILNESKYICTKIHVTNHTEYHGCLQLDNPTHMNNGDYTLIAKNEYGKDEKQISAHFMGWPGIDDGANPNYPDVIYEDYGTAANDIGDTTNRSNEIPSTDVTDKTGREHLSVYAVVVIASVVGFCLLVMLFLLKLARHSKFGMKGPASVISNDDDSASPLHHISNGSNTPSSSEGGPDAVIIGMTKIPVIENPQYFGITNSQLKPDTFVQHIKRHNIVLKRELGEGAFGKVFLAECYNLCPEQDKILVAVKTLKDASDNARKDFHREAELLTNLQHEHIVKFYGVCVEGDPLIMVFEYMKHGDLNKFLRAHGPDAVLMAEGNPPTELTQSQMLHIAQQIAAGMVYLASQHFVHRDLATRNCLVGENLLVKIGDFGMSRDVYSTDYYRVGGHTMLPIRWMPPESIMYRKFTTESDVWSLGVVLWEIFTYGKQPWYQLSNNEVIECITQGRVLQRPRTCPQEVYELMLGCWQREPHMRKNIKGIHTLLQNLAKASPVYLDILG
Sequence of UniProt P16257 (whole entry, looked up): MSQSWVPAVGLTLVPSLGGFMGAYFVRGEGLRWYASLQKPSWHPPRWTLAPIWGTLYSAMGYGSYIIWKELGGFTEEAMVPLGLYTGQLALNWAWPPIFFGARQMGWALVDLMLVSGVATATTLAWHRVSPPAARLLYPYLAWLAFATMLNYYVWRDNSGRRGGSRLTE
Sequence of UniProt P07333 (whole entry, looked up): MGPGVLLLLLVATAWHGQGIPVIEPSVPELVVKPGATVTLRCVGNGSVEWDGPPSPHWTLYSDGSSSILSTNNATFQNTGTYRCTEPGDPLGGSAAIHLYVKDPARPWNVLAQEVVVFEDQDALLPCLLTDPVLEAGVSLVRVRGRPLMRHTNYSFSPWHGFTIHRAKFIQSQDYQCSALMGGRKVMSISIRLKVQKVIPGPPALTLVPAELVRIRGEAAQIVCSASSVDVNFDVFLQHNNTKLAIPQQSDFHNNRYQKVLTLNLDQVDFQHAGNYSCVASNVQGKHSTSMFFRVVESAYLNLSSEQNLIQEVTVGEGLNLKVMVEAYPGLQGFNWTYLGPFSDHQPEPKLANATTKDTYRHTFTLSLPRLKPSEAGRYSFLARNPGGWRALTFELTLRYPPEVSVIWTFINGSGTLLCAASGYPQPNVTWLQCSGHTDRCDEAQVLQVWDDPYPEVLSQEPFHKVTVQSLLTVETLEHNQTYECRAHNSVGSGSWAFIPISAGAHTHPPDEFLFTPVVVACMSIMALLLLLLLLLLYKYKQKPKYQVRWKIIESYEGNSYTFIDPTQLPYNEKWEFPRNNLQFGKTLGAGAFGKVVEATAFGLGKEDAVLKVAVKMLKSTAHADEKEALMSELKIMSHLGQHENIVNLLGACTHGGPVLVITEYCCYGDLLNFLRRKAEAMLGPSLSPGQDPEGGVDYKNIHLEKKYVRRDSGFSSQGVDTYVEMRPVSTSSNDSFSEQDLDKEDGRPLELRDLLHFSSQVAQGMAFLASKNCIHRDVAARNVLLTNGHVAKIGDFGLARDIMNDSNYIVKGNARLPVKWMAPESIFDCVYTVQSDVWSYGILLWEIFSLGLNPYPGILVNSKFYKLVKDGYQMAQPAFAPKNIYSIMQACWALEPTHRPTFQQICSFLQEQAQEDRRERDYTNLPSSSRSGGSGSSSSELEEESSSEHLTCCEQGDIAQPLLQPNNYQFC
Sequence of UniProt P41240 (whole entry, looked up): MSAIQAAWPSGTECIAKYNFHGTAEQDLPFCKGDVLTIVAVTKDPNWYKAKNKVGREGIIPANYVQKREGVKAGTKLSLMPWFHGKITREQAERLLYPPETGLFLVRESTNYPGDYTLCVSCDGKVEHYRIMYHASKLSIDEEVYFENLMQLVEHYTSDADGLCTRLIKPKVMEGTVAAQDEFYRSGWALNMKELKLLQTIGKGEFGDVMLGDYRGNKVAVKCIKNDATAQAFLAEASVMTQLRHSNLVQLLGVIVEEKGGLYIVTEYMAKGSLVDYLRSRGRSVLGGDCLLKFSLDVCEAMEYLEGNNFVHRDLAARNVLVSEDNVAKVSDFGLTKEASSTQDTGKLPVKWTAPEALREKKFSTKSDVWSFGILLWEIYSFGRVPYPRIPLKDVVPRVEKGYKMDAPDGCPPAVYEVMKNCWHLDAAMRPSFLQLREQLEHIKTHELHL

Study 1
Structure (SMILES): O=C(Nc1cnn(-c2csc(C(=O)NC3COC3)c2)c1)Nc1c(F)cccc1Cl
Observed: enzyme activity
Concentration: 5 µM
Relative to: untreated control
STK33 (Homo sapiens, UniProt Q9BYT3) — remaining activity: 80.3%.
It gave 86% for remaining activity (Cyclin-dependent kinase 1, with cyclin A (CDK1, Homo sapiens, UniProt P06493)).
NTRK2 (Homo sapiens, UniProt Q16620) — remaining activity: 88.2%.
The remaining activity was 95.1% (TSSK2 (Homo sapiens, UniProt Q96PF2)).
For IRAK1 (Homo sapiens, UniProt P51617): remaining activity read 106%.
For Cyclin-dependent kinase 19, with cyclin C (CDK19, Homo sapiens, UniProt Q9BWU1): remaining activity read 93.3%.
It gave 97.3% for remaining activity (TGFBR1 (Homo sapiens, UniProt P36897)).
It gave 95.3% for remaining activity (STK38 (Homo sapiens, UniProt Q15208)).
Cyclin-dependent kinase 5, with p35 (CDK5, Homo sapiens, UniProt Q00535) — remaining activity: 94.2%.
It gave 91% for remaining activity (FGFR3 (Homo sapiens, UniProt P22607)).
MYLK (Homo sapiens, UniProt Q15746) — remaining activity: 92.8%.
For CDC42BPG (Homo sapiens, UniProt Q6DT37): remaining activity read 115%.

Study 2
Cell line: mouse MPNST tumor cells
Method: high-content immunofluorescence imaging
Item: nuclear SOX9
Concentration: 10 µM
Time: 12 h
Notes: mean of 2 replicates
Relative to: DMSO control
Reading: higher = more nuclear SOX9
For O=[N+]([O-])c1ccc(CSc2ncnc3c2ncn3[C@@H]2O[C@H](CO)[C@@H](O)[C@H]2O)cc1, “nuclear SOX9 intensity” read 102 % of DMSO.
Cc1cc(C(C)Nc2ccc(F)c(-c3cc(C)c(C(=O)NC4(C(=O)O)CC4)c(C)c3)c2)ccc1Cl (stereo not drawn): “nuclear SOX9 intensity” 88.8 % of DMSO.
Under “nuclear SOX9 intensity”, CC(C)C(=O)SCCCCC[C@H](NC(=O)OC(C)(C)C)C(=O)NC12CC3CC(CC(C3)C1)C2 is recorded as 116 % of DMSO.
Under “nuclear SOX9 intensity”, N=C(N)NCCN1CCCCCCC1 is recorded as 99.5 % of DMSO.
For O=C1c2c(O)ccc(O)c2C(=O)c2c(NCCNCCO)ccc(NCCNCCO)c21, “nuclear SOX9 intensity” read 102 % of DMSO.
COC(=O)C1=C(C#N)NC(C)=C(C(=O)OC(C)C)C1c1cccc([N+](=O)[O-])c1 (stereo not drawn): “nuclear SOX9 intensity” 126 % of DMSO.
For CC(C)c1nc(N(C)S(C)(=O)=O)nc(-c2ccc(F)cc2)c1/C=C/[C@@H](O)C[C@@H](O)CC(=O)O, “nuclear SOX9 intensity” read 100 % of DMSO.
For COC(=O)Nc1nc2cc(Sc3ccccc3)ccc2[nH]1, “nuclear SOX9 intensity” read 172 % of DMSO.
Under “nuclear SOX9 intensity”, CCCn1c(=O)c2[nH]c(-c3ccc(OCC(=O)O)cc3)nc2n(CCC)c1=O is recorded as 95.4 % of DMSO.
For Cc1cc(CS(=O)(=O)c2ccccc2)cc(OCc2ccc(CN3CCC[C@@H]3CO)cc2)c1, “nuclear SOX9 intensity” read 215 % of DMSO.
O=C(c1ccc(F)cc1)C1CCN(CCCCc2ccccc2)CC1 — result for “nuclear SOX9 intensity”: 125 % of DMSO.
For NC1CCN(c2nc3c(cc2F)c(=O)c(C(=O)O)cn3-c2ccc(F)cc2F)C1 (stereo not drawn), “nuclear SOX9 intensity” read 102 % of DMSO.

Study 3
Compound: O=C1Nc2ccccc2/C1=C\c1c(Cl)[nH]c2ccccc12
Observed: enzyme activity
Mode: inhibitor
Concentration: 0.5 µM
Relative to: control
For MYLK (Homo sapiens, UniProt Q15746): remaining activity read 90.4%.
It gave 86% for remaining activity (NUAK1 (Homo sapiens, UniProt O60285)).
The remaining activity was 101% (CSK (Homo sapiens, UniProt P41240)).
The remaining activity was 97.2% (CSF1R (Homo sapiens, UniProt P07333)).
For FLT3 (Homo sapiens, UniProt P36888): remaining activity read 80.5%.
EPHA7 (Homo sapiens, UniProt Q15375) — remaining activity: 95.3%.
It gave 89.2% for remaining activity (PRKCG (Homo sapiens, UniProt P05129)).
The remaining activity was 99.7% (RPS6KB1 (Homo sapiens, UniProt P23443)).
It gave 94.2% for remaining activity (EPHB2 (Homo sapiens, UniProt P29323)).
For GRK2 (Homo sapiens, UniProt P25098): remaining activity read 98.9%.
For GRK6 (Homo sapiens, UniProt P43250): remaining activity read 107%.
It gave 99.8% for remaining activity (BMX (Homo sapiens, UniProt P51813)).
The remaining activity was 96.9% (FGFR4 (Homo sapiens, UniProt P22455)).
The remaining activity was 89.5% (Aurora kinase C (AURKC, Homo sapiens, UniProt Q9UQB9)).
It gave 116% for remaining activity (SGK1 (Homo sapiens, UniProt O00141)).
SRPK3 (Homo sapiens, UniProt Q9UPE1) — remaining activity: 97.1%.
The remaining activity was 105% (RPS6KA1 (Homo sapiens, UniProt Q15418)).
It gave 95.1% for remaining activity (PRKCE (Homo sapiens, UniProt Q02156)).
It gave 106% for remaining activity (PIM2 (Homo sapiens, UniProt Q9P1W9)).

Mixed results
With O=C(Nc1cccnn1)N1CC(CC=Cc2cncc(Oc3ccc(C(F)(F)F)cn3)n2)C1 the remaining binding was 67% (ABL1 (Homo sapiens, UniProt P00519, F317I); KINOMEscan; 1 µM, F317I mutant, phosphorylated; relative to: control).
CN(C)[C@H]1CCN(c2cc(-c3ccccc3)nc3ccnn23)C1 has an inhibition of -12.5% (Tspo (Rattus norvegicus, UniProt P16257); binding, radioligand binding; 10 µM).

Repeated from above (study 2):
For CC(C)c1nc(N(C)S(C)(=O)=O)nc(-c2ccc(F)cc2)c1/C=C/[C@@H](O)C[C@@H](O)CC(=O)O, “nuclear SOX9 intensity” read 100 % of DMSO.
For O=[N+]([O-])c1ccc(CSc2ncnc3c2ncn3[C@@H]2O[C@H](CO)[C@@H](O)[C@H]2O)cc1, “nuclear SOX9 intensity” read 102 % of DMSO.
For O=C1c2c(O)ccc(O)c2C(=O)c2c(NCCNCCO)ccc(NCCNCCO)c21, “nuclear SOX9 intensity” read 102 % of DMSO.
O=C(c1ccc(F)cc1)C1CCN(CCCCc2ccccc2)CC1 — result for “nuclear SOX9 intensity”: 125 % of DMSO.
For COC(=O)Nc1nc2cc(Sc3ccccc3)ccc2[nH]1, “nuclear SOX9 intensity” read 172 % of DMSO.
Under “nuclear SOX9 intensity”, CC(C)C(=O)SCCCCC[C@H](NC(=O)OC(C)(C)C)C(=O)NC12CC3CC(CC(C3)C1)C2 is recorded as 116 % of DMSO.
